Results from different studies.
Compare with care: the assays were run in different laboratories. “And” joins repeats or separate records; there may be more than shown. ± gives the spread as reported.

CN[C@H](CC(C)C)C(=O)N[C@H]1C(=O)N[C@@H](CC(N)=O)C(=O)N[C@H]2C(=O)N[C@H]3C(=O)N[C@H](C(=O)N[C@H](C(=O)O)c4cc(O)cc(O)c4-c4cc3ccc4O)[C@H](O)c3ccc(c(Cl)c3)Oc3cc2cc(c3O[C@@H]2O[C@H](CO)[C@@H](O)[C@H](O)[C@H]2O[C@H]2C[C@](C)(NCc3ccc(-c4ccc(Cl)cc4)cc3)[C@H](O)[C@H](C)O2)Oc2ccc(cc2Cl)[C@H]1O — Tmax (mouse, plasma; intravenous, 10 mg/kg): 4.98 min
COc1c(N2CC3CCCN(C(=O)OCc4cnc([N+](=O)[O-])s4)C3C2)c(F)cc2c(=O)c(C(=O)O)cn(C3CC3)c12 (stereo not shown) — reduction potential (cyclic voltammetry; anhydrous acetonitrile; concentration not given; baseline: Ag/AgCl): -0.83 V
C=CC(=O)Nc1cccc(Cn2ncc3cnc(Nc4cnn(CCOC)c4)nc32)c1 — serum AST (Sprague-Dawley rat female, serum; oral, 180 mg/kg, day 28, 28-day subacute toxicity): 75.8 ± 42 U/L
CC[C@H](C)[C@H](NC(=O)[C@H](CCCCN)NC(=O)CNC(=O)[C@H](CC(C)C)NC(=O)[C@H](Cc1ccccc1)NC(=O)[C@H](CCCCN)NC(=O)[C@H](CO)NC(=O)[C@H](Cc1ccccc1)NC(=O)[C@H](Cc1c[nH]c2ccccc12)NC(=O)[C@H](CCC(N)=O)NC(=O)[C@@H](NC(=O)[C@H](Cc1ccccc1)NC(=O)CCCCCNC(=O)CN1CCN(CC(=O)O)CCN(CC(=O)O)CCN(CC(=O)O)CC1)C(C)C)C(=O)N[C@@H](CCC(=O)O)C(=O)N1CCC[C@H]1C(=O)N[C@@H](CC(=O)O)C(=O)N[C@H](C(=O)N[C@@H](CO)C(=O)N[C@@H](CCC(N)=O)C(=O)N[C@H](C(=O)N[C@@H](CCC(N)=O)C(=O)N[C@@H](CC(=O)O)C(=O)N1CCC[C@H]1C(=O)N[C@@H](CC(N)=O)C(=O)N[C@@H](CC(=O)O)C(=O)N[C@@H](CCC(N)=O)C(=O)N[C@@H](Cc1ccc(O)cc1)C(=O)N[C@@H](CCC(=O)O)C(=O)N1CCC[C@H]1C(=O)N[C@@H](Cc1ccccc1)C(=O)O)C(C)C)C(C)C [copper-64 labelled] — tissue uptake (BALB/c mice, male, CT26 tumour-bearing, liver; 2 h, vehicle-treated): 8.54 ± 0.8 %ID/g
CC(C)(c1cc(Br)c(O)c(Br)c1)c1cc(Br)c(O)c(Br)c1 — dose fraction in permeate (ultrafiltration; cow milk whey; 20 nM nominal in whole milk): 7.16%
CSCC[C@H](NC(=O)CNC(=O)[C@H](CCCCN)NC(=O)[C@H](CC(C)C)NC(=O)[C@@H]1CCCN1C(=O)[C@H](CO)NC(=O)[C@H](Cc1c[nH]cn1)NC(=O)[C@H](Cc1c[nH]c2ccccc12)NC(=O)[C@H](CCCNC(=N)N)NC(=O)[C@H](CC(C)C)NC(=O)[C@H](CCCNC(=N)N)NC(=O)[C@H](Cc1c[nH]c2ccccc12)NC(=O)[C@H](CS)NC(=O)CCCCCNC(=O)CN1CCN(CC(=O)O)CCN(CC(=O)O)CCN(CC(=O)O)CC1)C(=O)O [copper-64 labelled] — tissue uptake (ex vivo biodistribution; C57BL/6J mice bearing B16-F10 tumours, tumour; intravenous, 1.85 MBq, 30 h): 2.98 %ID/g
O=C(CN1C(=O)C2(CCN(C(=O)c3ccc4[nH]ncc4n3)CC2)c2c(Br)cccc21)NCC(F)(F)F — Vd (male C57BL/6 mouse, plasma; intravenous, 2 mg/kg): 4 L/kg
CC1(C)C(=O)N(c2ccc(C#N)c(C(F)(F)F)c2)C(=S)N1c1ccc(C(=O)O)c(F)c1 — AUC(0-t) (human, male, plasma; oral, 160 mg, single dose, fasting): 62000 ± 15300 ng·h/mL
CCCCCCCCCCCC(=O)C(C)C(=O)N1CCC[C@H]1C(=O)NC(C)(C)C(=O)NC(C)(C)C(=O)NC(C)(C)C(=O)N[C@](C)(CC)C(=O)NCCC(=O)N[C@@H](C)C(=O)N[C@](C)(CC)C(=O)N[C@@H](C)C(=O)N[C@@H](CC(C)C)C(=O)N[C@](C)(CC)C(=O)NCCC(=O)N[C@@H](C)C(=O)N[C@](C)(CC)C(=O)NCCC(=O)N[C@@H](C)C(=O)NC(C)(C)C(=O)NC(C)(C)C(=O)NC(C)(C)C(=O)N[C@@H](C)C(=O)N[C@@H](CC(=O)O)C(=O)O (stereo partly shown) — remaining intact peptide (LC-MS; 50% pooled human serum; 40 µM, 20 min, pH 7.5, 37 °C; baseline: 0 h): 72.7% and 66.2% and 65.8%
O=C1NC2(CC2)COc2ncc(F)cc2[C@H]2COCCN2c2ccn3ncc1c3n2 — organ weight (Sprague-Dawley rat, female, adrenals; oral, 5 mg/kg/day, 4 weeks): 0.076 ± 0.011 g
COc1ccc(C([O-])=CC(=O)c2ccc(C(C)(C)C)cc2)cc1.Cc1ccc(C(C)C)cc1.[Cl-].[Ru+2] — stability onset time (MLCT absorbance and HPLC; water, PBS, Opti-MEM; 37 °C): ≤ 6 h
CC(C)[C@@H]1NC(=O)CNC(=O)[C@H](CC(N)=O)NC(=O)[C@H](CCCNC(=N)N)NC(=O)[C@H](Cc2ccc(O)cc2)NC(=O)[C@H](C(C)C)NC(=O)[C@@H](NC(=O)[C@@H](NC(=O)[C@H](CC(N)=O)NC(=O)[C@H](Cc2c[nH]c3ccccc23)NC(=O)[C@H](C)NC(=O)[C@H](Cc2ccccc2)NC(=O)CNC(=O)[C@H](CCCCN)NC(=O)[C@H](Cc2ccccc2)NC(=O)[C@H](Cc2ccccc2)NC(=O)[C@H](CCCCN)NC(=O)OCC2c3ccccc3-c3ccccc32)C(C)C)CSSC[C@@H](C(=O)N[C@@H](Cc2c[nH]cn2)C(=O)N[C@@H](CCCNC(=N)N)C(=O)N[C@@H](CCCNC(=N)N)C(=O)N[C@@H](C)C(=O)N[C@@H](CC(N)=O)C(N)=O)NC(=O)[C@H](C(C)C)NC(=O)[C@H](CCCNC(=N)N)NC1=O — platelet distribution width (ICR mice, blood; intraductal mammary, 5 mg/kg, day 5): 15.9 ± 0.35%
Cc1ccc(OCC(=O)N(Cc2cccs2)c2ccn[nH]2)cc1 — PCE to total erythrocyte ratio (micronucleus; CD-1 mouse Crl:CD-1(ICR), male, bone marrow; oral, 2000 mg/kg/day, 3 days): 0.66 ± 0.06
CC(C)=CCC/C(C)=C\CCn1cc(CC(P(=O)(O)O)P(=O)(O)O)nn1 — Papp (PAMPA; phosphate buffer; 5 µg/mL, 5 h, room temperature): 0.086 ± 0.007 ×10⁻⁶ cm/s
CC(C)C[C@H](NC(=O)[C@H](Cc1ccc(O)cc1)NC(=O)[C@H](C)NC(=O)[C@H](CC(N)=O)NC(=O)[C@H](CC(C)C)NC(=O)[C@H](C)NC(=O)[C@@H](NC(=O)[C@H](CCCCN)NC(=O)CNC(=O)[C@@H](NC(=O)[C@H](CCCCN)NC(=O)[C@H](CCCCN)NC(=O)CNC(=O)[C@@H](NC(=O)[C@H](Cc1c[nH]cn1)NC(=O)[C@@H](NC(=O)[C@H](C)NC(=O)[C@H](CCCCN)NC(=O)[C@H](CCCCN)NC(=O)[C@H](Cc1ccccc1)NC(=O)[C@H](Cc1c[nH]c2ccccc12)NC(=O)[C@H](CCCCN)NC(=O)[C@H](CCCCN)NC(=O)[C@H](CC(C)C)NC(=O)CN)C(C)C)C(C)C)C(C)C)C(C)C)C(N)=O — acute toxic concentration (zebrafish embryos 4 hpf, E3 medium; 1 h): 5 µM
CC(C)[C@H]1NC(=O)[C@@H](C)NC(=O)[C@@H](C(C)C)NC(=O)[C@@H](Cc2ccccc2)NC(=O)[C@@H](C(C)C)NC(=O)[C@@H]([C@H](C)O)NC(=O)[C@@H](Cc2ccc(O)cc2)NC(=O)[C@@H](CCCNC(=N)N)NC(=O)[C@@H]2CCCC[C@H]2NC(=O)[C@@H](CO)NC(=O)[C@H](Cc2ccc(O)cc2)NC(=O)CSC[C@@H](C(=O)NCCOCCOCCOCCOCCOCCOCCC(N)=O)NC(=O)[C@@H](CO)NC(=O)[C@@H](C(C)C)NC(=O)[C@@H](Cc2ccc(O)cc2)NC1=O — stability time (HPLC; human serum; 10% serum, 37 °C): ≥ 24 h
C=Cc1c(C)c2cc3nc(c(CC(=O)[O-])c4[n-]c(cc5nc(cc1[n-]2)C(C)=C5CC)c(C)c4C(=O)[O-])C(CCC(=O)[O-])C3C.[Cu+2].[Na+].[Na+].[Na+] (stereo not shown) — serum ALT (Wistar rat, male; oral, 500 mg/kg daily, 28 days): 45.7 ± 8.55 U/L
COc1ccc(CNc2ccc3c(c2)S(=O)(=O)C=C3)cc1 — haemoglobin (male C57BL/6 mice, blood; intraperitoneal, 5 mg/kg, day 8, group average): 158 g/L
C[C@@H](O)[C@H](NC(=O)[C@H](Cc1c[nH]c2ccccc12)NC(=O)[C@H](CCCNC(=N)N)NC(=O)[C@H](Cc1c[nH]c2ccccc12)NC(=O)[C@H](CCCNC(=N)N)NC(=O)CNC(=O)[C@@H](NC(=O)[C@H](CCCNC(=N)N)NC(=O)[C@H](CCCNC(=N)N)NC(=O)[C@H](CC(N)=O)NC(=O)[C@H](Cc1c[nH]c2ccccc12)NC(=O)[C@H](CCCNC(=N)N)NC(=O)[C@H](Cc1c[nH]c2ccccc12)NC(=O)c1ccccc1)[C@@H](C)O)C(=O)NCC(=O)N1CCC[C@H]1C(N)=O — melting temperature (circular dichroism; phosphate buffer; 30 µM, pH 6.5): 31.7 °C

Excerpt of the above:
CC(C)(c1cc(Br)c(O)c(Br)c1)c1cc(Br)c(O)c(Br)c1 — dose fraction in permeate (ultrafiltration; cow milk whey; 20 nM nominal in whole milk): 7.16%
